Measurements gathered from unrelated publications.
Parts stem from different laboratories: compare values within a part only. Substitutions count along the parent as printed.
Chain of UniProt Q9H832 (whole entry, looked up): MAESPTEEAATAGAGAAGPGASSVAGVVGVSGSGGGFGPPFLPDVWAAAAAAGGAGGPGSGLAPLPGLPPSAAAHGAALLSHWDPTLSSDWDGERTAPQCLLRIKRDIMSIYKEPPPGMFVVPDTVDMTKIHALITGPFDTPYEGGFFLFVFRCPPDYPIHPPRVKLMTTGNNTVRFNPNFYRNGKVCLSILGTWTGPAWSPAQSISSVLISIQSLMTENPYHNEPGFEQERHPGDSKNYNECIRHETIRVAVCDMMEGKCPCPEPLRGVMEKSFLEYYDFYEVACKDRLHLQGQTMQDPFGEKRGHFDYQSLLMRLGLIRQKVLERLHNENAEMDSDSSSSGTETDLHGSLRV
Chain of UniProt Q9Y385 (whole entry, looked up): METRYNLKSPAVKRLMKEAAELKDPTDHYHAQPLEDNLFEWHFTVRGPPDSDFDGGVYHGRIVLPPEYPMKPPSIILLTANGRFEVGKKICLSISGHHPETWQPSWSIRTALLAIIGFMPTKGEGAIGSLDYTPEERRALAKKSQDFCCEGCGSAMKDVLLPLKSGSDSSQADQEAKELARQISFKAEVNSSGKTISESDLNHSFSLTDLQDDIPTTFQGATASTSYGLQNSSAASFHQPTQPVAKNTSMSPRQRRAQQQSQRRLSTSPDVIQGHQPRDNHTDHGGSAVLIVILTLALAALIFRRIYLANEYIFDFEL
Chain of UniProt O00762 (whole entry, looked up): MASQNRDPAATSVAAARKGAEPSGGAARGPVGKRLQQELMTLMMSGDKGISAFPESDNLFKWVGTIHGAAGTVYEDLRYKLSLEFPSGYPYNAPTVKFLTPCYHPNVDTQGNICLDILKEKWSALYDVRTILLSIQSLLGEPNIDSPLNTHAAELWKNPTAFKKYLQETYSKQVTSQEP
Chain of UniProt Q7Z7E8 (whole entry, looked up): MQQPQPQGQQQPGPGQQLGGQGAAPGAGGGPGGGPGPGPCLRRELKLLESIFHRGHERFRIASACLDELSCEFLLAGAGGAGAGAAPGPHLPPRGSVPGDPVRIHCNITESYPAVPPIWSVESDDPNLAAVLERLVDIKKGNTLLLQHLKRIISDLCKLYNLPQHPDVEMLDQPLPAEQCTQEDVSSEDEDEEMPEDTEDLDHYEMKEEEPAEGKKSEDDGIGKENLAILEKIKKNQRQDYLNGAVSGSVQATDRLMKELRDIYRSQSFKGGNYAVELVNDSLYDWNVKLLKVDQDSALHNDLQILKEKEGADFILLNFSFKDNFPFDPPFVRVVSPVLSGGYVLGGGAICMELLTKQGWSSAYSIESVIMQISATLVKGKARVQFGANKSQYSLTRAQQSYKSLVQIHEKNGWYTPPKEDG
Chain of UniProt Q16763 (whole entry, looked up): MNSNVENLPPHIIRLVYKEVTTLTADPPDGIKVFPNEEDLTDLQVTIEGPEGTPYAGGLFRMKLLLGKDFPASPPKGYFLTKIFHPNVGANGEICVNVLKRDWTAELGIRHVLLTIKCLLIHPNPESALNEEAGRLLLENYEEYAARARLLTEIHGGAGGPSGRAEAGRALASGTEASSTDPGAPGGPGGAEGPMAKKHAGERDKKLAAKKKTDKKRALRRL
Chain of UniProt Q9C0C9 (whole entry, looked up): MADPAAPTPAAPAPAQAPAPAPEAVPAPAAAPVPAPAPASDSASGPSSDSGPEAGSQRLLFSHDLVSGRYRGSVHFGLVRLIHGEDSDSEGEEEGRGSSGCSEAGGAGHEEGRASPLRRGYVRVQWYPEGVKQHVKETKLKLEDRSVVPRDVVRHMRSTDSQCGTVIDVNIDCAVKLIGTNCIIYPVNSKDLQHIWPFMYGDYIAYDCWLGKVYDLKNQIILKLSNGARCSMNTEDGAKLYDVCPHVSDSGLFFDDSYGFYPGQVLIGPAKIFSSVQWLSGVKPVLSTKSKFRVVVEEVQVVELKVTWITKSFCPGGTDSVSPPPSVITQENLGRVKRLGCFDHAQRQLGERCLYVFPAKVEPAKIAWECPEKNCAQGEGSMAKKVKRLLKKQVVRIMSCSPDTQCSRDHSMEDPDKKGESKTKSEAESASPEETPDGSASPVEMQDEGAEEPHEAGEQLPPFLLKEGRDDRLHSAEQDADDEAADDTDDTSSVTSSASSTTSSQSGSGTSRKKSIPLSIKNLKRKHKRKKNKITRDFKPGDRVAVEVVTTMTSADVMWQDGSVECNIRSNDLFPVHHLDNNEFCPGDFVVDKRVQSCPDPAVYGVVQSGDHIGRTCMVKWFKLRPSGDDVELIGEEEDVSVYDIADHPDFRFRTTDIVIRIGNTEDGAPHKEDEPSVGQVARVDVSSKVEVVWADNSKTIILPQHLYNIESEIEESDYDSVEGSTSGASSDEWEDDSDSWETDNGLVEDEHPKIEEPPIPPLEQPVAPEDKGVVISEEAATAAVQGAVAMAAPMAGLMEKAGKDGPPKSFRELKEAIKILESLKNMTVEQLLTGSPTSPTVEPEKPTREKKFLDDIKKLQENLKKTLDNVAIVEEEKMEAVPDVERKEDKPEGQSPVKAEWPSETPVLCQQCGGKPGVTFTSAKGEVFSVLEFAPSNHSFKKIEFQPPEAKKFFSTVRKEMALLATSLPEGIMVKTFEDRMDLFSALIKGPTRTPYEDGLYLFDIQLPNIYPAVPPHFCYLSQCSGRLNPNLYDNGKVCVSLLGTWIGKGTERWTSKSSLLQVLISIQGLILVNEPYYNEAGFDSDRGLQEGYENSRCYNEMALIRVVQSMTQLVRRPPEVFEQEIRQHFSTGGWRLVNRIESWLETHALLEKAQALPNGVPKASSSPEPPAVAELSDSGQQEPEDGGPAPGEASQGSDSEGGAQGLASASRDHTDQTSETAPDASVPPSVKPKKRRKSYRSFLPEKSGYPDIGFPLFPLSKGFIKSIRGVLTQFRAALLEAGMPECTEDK
Chain of UniProt Q8N2K1 (whole entry, looked up): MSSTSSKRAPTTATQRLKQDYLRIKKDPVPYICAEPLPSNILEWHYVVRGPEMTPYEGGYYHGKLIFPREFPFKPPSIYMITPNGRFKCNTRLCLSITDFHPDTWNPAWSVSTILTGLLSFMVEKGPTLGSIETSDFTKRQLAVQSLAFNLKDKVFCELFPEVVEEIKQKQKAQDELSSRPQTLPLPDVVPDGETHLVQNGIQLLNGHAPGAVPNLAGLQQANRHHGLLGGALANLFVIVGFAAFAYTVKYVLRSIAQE
Chain of UniProt P63146 (whole entry, looked up): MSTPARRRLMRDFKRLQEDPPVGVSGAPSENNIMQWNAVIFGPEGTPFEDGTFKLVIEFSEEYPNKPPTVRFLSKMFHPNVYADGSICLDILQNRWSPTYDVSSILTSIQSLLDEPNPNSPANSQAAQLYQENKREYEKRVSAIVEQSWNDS
Chain of UniProt P62253 (whole entry, looked up): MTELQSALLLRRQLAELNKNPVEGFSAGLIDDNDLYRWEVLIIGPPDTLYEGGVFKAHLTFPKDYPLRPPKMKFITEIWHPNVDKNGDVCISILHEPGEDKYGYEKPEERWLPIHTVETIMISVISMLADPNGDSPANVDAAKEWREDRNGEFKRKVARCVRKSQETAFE

Study 1
Sequence: KEQLEKHNDICAICYQDMKSAVITPCSHFFHAGCLKKWLYVQETCPLCHCHLKNSSQLP (RNF145 RING domain (UniProt Q96MT1))
Method: yeast two-hybrid
Sample: yeast
Notes: mostly zero background
Relative to: not given
Reading: higher = stronger interaction
Quantity: lacZ reporter activity
UBE2J2 UBC core domain (UniProt Q8N2K1): 0
UBE2I UBC core domain (UniProt P63279): 0
UBE2Z UBC core domain (UniProt Q9H832): 0
UBE2J1 UBC core domain (UniProt Q9Y385): 0
UBE2B UBC core domain (UniProt P63146): 0
BIRC6 UBC core domain (UniProt Q9NR09): 0
UBE2C UBC core domain (UniProt O00762): 0
UBE2G1 UBC core domain (UniProt P62253): 0
UBE2Q1 UBC core domain (UniProt Q7Z7E8): 0
UBE2O UBC core domain (UniProt Q9C0C9): 0
UBE2S UBC core domain (UniProt Q16763): 0

Study 2
Target: Ras GTPase-activating protein-binding protein 1, full length (G3BP1, Homo sapiens, UniProt Q13283)
Chain of UniProt Q13283 (whole entry, looked up): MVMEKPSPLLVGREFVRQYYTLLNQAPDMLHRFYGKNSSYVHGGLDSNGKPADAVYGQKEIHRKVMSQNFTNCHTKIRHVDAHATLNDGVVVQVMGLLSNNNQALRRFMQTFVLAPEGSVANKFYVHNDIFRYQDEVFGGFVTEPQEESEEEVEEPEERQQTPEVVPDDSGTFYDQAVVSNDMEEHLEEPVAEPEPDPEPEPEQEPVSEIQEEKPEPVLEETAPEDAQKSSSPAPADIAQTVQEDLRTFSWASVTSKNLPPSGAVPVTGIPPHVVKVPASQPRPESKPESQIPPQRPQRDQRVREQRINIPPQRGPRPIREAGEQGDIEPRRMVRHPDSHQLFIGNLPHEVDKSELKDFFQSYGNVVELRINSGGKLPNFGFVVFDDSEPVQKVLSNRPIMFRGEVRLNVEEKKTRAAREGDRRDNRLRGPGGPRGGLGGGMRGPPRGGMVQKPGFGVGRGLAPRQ
Method: RNA Bind-n-Seq
Form: RNA
Sample: in vitro
Tested at: 200 nM
Notes: whole 134-nt RNA, ends assumed
Together with: 150 mM LiCl
Relative to: input library
Reading: higher = stronger binding
Quantity: log2 enrichment
Each molecule: 7-deaza-guanosine replaces G
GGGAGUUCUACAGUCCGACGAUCUGGCCCUGGUGGCAUGCGGGGAGGAAGAGGUGGCCUUAUGGAUCGUGGUGGUCCCGGUGGAAUGUUCAGAGGUGGCCGUGGUGGAGACAGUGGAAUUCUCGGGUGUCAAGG: 0.45
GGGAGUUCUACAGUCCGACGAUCAGUCCUGUGCUACACAUCGUAUGUACCGAAUCGGGAAAAGGGGAAAAGGAAAAGGGGAAAGUAUUAUGUUACGCCGUUCGGAUCUGCACUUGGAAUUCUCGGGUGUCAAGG: -0.336
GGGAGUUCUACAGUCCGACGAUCUCAAGUCCUGUGCUACACAUCGUAUGUACCGAAUCGGUUUUUGGAAAAAGGAGGAAAGUAUUAUGUUACGCCGUUCGGAUCUGCACUUCCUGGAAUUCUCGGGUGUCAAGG: 0.0424
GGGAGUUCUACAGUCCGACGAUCCACAGACAACACGCACCCACACAGACACAGAGGGAAGGGGUGGGGAUGGGGACAGGGUGCACAGCAGGGCGGGGUAGGACCCCAGCCCCUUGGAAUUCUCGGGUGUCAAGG: -1.42
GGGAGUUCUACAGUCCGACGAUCGCAGGAAGUAAAAACAAAUGGAAAUGGUUCGGAUAGUGGCAGGGGUGGGGGUUGCUAAGGAAAGGGUGGGAUGGGAGUGGGUAAAGAGUUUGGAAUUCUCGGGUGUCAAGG: -0.711
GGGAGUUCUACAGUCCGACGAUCGUCCUGUGCUACACAUCGUAUGUACCGAAUCGGGAAAGGGUUUUUGGGAAAAAAAGGGAAAGUAUUAUGUUACGCCGUUCGGAUCUGCACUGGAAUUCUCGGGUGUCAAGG: -0.652
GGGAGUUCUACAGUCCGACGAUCCUCAAGUCCUGUGCUACACAUCGUAUGUACCGAAUCGGUGGAAAGGAAAAAGGAAAGUAUUAUGUUACGCCGUUCGGAUCUGCACUUCCAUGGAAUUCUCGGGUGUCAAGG: -0.274
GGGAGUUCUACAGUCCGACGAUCUGGGAGGUGGAUUUUGUUUAUUUUUUUAGCUCAUUUCCAGGGGUGGGAAUUUUUUUUUAAUAUAUGUCAUGAAUAAAGUUGUUUUUGAAAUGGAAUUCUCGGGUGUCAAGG: -0.122

Study 3
Target: Histone acetyltransferase KAT6A, winged helix 1, GST fusion (KAT6A, Homo sapiens, UniProt Q92794, residues 1-85)
Method: protein binding microarray
Form: double-stranded DNA, one strand shown
Sample: in vitro
Tested at: not given
Notes: 8-mer, flanks averaged, mean of 2 arrays, mostly near background
Relative to: not given
Reading: higher = stronger binding
Quantity: E-score
Residues (chain): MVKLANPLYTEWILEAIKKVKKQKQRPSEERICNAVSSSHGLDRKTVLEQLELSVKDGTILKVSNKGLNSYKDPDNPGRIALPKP
CCTATAGC: 0.107
CAAGCCCA: -0.245
CTCACTGA: -0.245
ATCGCTGG: 0.0115
CTGAGATA: -0.219
AGCGAAGC: 0.0453
GCTATACC: 0.136
CTATAAGA: -0.11
GACGAACC: 0.0441
ATCATGAG: -0.0915
AAATTATA: 0.082
CCGGGGCA: 0.23
CACTCACG: 0.168
CATCGAAG: 0.0435
AGGGCTTA: -0.0213
AGACAGTA: -0.216
AAGTTATT: -0.134
AGTTCAGA: -0.155
AGCGACCA: -0.0992
TAATAGGA: -0.00268
ACGGTCTC: 0.229
CTCTGTTC: -0.26
ATAAGGCG: 0.192
GGCCTACC: 0.0896
ATAGCCCA: -0.27

Study 4
Target: CCND1, cyclin fold, Cln2 fusion (human)
Method: yeast growth competition, sequencing
Sample: yeast
Notes: weak parent motif
Relative to: not given
Reading: higher = stronger binding
Quantity: normalised enrichment score
Starting sequence: CDC6 docking peptide (human); TLKGRRLVFDNQL
T1A: 0.419
N11R: 0.0846
G4T: -0.383
L2E: 0.578
R6I: 0.943
L7D: 0.185
G4E: -0.0707
T1P: 0.668
L7P: 0.0347
N11V: 0.428
N11C: 0.757
G4W: 0.0196
D10I: 0.619
L2H: 0.0286
R6E: 0.0508
L13N: 0.293
K3R: 0.591
K3G: -0.153
F9T: -0.177
T1N: -0.0281
R5T: 0.555
G4P: 0.483
D10V: -0.861
T1D: -0.411
